Measured values collected from several papers.
Lines come from different studies, so protocols differ.

Substance	tested on	assay	system	conditions	quantity	result
Cn1cnc(Cn2c(=O)[nH]/c(=N\c3cc4cn(C)nc4cc3Cl)n(Cc3cc(F)c(F)cc3F)c2=O)n1	–	–	human, mild renal impairment	oral, 375 mg	any TEAE, mild severity	25%
CC[C@H](C)[C@H](NC(=O)[C@H](CC(C)C)NC(=O)[C@H](Cc1c[nH]c2ccccc12)NC(=O)[C@H](CCC(N)=O)NC(=O)[C@@H](NC(=O)[C@H](Cc1ccccc1)NC(=O)[C@H](C)NC(=O)[C@H](CCCCNC(=O)COCCOCCNC(=O)COCCOCCNC(=O)CC[C@H](NC(=O)CCCCCCCCCCCCCCCCCCC(=O)O)C(=O)O)NC(=O)[C@H](CCC(N)=O)NC(=O)[C@H](C)NC(=O)[C@@H](NC(=O)[C@H](CCCCN)NC(=O)[C@H](CC(=O)O)NC(=O)[C@H](CC(C)C)NC(=O)C(C)(C)NC(=O)[C@@H](NC(=O)[C@H](CO)NC(=O)[C@H](Cc1ccc(O)cc1)NC(=O)[C@H](CC(=O)O)NC(=O)[C@H](CO)NC(=O)[C@@H](NC(=O)[C@H](Cc1ccccc1)NC(=O)[C@@H](NC(=O)CNC(=O)[C@H](CCC(=O)O)NC(=O)C(C)(C)NC(=O)[C@@H](N)Cc1ccc(O)cc1)[C@@H](C)O)[C@@H](C)O)[C@@H](C)CC)[C@@H](C)CC)C(C)C)C(=O)N[C@@H](C)C(=O)NCC(=O)NCC(=O)N1CCC[C@H]1C(=O)N[C@@H](CO)C(=O)N[C@@H](CO)C(=O)NCC(=O)N[C@@H](C)C(=O)N1CCC[C@H]1C(=O)N1CCC[C@H]1C(=O)N1CCC[C@H]1C(=O)N[C@@H](CO)C(N)=O	–	–	healthy subjects, single ascending dose	1.0 mg	adverse events (puncture site bruise)	0%
TLRVEAFEYYHTTDP	human CD4 T cells	AIM	peptide	–	responding donors	18%
CNC(=O)[C@H](Cc1ccccc1)NC(=O)[C@H](CC(C)C)[C@H](CSc1cccs1)C(=O)NO	Replicase polyprotein 1ab, main protease (rep, Severe acute respiratory syndrome coronavirus 2, UniProt P0DTD1)	reporter gene (mKate2), inhibitor	–	20 µM	inhibition	0.192%
GVPINTNSSPDDQIG	human CD4 T cells	AIM	peptide	–	responding donors	8%
Nc1ncnc2c([C@@H]3N[C@H](CO)[C@@H](O)[C@H]3O)c[nH]c12	Marburg marburgvirus	viral RNA in cell lysate	HeLa, Musoke	100 µM	inhibition	97.6%

Excerpt of the above:
Substance	tested on	assay	system	conditions	quantity	result
TLRVEAFEYYHTTDP	human CD4 T cells	AIM	peptide	–	responding donors	18%
